Experimental data gathered from unrelated publications.
Parts stem from different laboratories: compare values within a part only. Values joined by “and” are separate records of one study, mostly repeats; a detail may differ.
UniProt P11362, sequence (whole entry, looked up): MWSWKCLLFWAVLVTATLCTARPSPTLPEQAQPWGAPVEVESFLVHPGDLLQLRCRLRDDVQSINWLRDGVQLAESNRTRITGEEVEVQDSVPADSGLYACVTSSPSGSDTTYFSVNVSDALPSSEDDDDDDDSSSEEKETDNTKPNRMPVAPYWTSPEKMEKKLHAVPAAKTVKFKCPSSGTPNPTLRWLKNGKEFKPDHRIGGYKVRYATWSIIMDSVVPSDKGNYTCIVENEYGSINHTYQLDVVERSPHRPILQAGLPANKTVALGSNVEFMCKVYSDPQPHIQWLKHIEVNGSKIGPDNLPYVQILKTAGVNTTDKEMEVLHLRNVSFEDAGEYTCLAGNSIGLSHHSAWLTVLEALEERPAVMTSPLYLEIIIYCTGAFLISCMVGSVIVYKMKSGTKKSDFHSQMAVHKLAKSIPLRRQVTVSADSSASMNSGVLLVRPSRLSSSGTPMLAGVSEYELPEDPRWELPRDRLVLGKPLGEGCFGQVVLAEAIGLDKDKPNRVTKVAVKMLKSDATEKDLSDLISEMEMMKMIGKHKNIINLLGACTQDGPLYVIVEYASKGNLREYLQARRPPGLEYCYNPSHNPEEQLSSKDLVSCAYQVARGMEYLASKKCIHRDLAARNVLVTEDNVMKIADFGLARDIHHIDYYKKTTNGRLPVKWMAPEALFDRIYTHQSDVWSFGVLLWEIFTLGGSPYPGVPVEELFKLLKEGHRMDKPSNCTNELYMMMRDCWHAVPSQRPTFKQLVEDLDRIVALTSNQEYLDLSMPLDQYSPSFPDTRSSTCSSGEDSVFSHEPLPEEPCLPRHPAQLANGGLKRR
UniProt Q9HC98, sequence (whole entry, looked up): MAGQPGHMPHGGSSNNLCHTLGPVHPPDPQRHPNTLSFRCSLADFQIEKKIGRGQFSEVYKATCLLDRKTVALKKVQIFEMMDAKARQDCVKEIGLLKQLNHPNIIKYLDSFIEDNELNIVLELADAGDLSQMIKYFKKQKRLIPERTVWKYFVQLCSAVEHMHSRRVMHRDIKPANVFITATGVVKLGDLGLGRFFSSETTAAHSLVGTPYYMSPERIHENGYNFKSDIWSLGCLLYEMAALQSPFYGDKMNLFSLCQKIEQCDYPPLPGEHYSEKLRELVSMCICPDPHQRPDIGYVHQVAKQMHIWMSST
UniProt P42684, sequence (whole entry, looked up): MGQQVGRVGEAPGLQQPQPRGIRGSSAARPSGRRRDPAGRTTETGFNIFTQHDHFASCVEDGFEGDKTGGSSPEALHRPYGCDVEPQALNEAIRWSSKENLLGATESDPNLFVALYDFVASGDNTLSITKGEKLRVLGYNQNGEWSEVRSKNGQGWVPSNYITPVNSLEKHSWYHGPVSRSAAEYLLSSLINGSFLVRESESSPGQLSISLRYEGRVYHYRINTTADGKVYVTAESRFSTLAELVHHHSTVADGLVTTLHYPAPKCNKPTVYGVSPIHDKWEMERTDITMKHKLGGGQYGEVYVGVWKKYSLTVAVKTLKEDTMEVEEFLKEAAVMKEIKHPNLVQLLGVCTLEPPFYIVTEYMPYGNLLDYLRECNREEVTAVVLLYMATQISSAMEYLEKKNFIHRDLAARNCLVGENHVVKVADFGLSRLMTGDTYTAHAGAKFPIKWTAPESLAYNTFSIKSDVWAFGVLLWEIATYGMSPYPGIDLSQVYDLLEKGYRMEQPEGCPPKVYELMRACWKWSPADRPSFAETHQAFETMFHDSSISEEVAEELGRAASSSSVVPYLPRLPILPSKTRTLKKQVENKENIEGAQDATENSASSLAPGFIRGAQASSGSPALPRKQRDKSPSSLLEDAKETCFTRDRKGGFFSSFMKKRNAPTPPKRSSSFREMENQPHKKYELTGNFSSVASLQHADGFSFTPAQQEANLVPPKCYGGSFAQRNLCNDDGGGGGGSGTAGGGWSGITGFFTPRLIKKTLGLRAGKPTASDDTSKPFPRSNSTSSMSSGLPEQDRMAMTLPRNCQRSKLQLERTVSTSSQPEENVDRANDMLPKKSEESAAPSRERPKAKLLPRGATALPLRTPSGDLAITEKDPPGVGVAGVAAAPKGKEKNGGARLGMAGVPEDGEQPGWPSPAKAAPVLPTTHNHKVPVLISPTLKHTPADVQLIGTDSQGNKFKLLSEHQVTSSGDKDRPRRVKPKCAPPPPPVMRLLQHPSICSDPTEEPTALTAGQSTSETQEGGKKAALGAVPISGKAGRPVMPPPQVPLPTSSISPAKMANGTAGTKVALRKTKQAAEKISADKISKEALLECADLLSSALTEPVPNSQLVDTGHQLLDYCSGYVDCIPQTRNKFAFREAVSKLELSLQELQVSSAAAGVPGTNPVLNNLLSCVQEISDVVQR
UniProt P52333, sequence (whole entry, looked up): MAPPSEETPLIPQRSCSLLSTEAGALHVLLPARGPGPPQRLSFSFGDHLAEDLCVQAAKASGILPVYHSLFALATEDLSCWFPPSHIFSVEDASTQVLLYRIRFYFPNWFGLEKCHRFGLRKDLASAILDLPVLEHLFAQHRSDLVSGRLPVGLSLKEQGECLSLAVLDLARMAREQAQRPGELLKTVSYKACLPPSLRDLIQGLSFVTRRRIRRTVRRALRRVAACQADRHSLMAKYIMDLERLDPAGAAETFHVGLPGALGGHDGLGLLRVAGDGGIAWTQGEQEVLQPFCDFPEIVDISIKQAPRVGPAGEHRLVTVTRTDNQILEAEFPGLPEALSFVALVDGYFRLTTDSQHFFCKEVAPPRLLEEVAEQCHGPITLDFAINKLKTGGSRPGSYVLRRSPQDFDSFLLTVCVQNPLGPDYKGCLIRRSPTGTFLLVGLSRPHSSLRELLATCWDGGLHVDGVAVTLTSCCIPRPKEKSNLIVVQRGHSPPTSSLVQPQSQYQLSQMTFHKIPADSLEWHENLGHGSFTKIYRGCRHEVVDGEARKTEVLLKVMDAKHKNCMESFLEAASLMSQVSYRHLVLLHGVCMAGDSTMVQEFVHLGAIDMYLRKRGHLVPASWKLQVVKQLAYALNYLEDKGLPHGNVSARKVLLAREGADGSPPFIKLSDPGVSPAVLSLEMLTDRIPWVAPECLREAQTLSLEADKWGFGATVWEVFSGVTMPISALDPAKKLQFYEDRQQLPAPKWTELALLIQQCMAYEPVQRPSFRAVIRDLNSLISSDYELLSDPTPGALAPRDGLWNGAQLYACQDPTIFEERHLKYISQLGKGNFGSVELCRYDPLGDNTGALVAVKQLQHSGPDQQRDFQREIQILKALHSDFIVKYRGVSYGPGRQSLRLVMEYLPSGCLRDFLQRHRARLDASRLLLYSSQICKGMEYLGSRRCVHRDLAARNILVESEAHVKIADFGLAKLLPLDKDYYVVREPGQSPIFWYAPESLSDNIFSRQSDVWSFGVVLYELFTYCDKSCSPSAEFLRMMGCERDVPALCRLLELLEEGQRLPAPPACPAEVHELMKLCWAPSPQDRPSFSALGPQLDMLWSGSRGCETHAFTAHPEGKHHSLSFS
UniProt P30291, sequence (whole entry, looked up): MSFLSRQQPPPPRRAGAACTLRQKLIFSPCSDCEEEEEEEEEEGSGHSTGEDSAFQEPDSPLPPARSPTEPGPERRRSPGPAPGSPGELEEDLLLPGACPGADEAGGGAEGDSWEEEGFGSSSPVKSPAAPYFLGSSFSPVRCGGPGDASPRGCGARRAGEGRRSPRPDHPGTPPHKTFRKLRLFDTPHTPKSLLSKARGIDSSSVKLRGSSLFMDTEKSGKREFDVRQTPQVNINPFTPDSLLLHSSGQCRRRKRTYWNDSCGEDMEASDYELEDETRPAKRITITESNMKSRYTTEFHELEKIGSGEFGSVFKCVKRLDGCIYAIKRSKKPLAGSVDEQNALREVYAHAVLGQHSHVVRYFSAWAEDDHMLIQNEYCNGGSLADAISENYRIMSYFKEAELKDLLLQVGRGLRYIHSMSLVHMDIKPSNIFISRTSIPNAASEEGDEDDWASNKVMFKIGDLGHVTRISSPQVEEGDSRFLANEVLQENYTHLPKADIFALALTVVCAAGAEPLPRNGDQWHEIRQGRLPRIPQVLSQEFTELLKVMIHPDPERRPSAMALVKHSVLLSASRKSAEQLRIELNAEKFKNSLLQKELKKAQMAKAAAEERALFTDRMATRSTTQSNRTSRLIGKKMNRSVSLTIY
UniProt P36507, sequence (whole entry, looked up): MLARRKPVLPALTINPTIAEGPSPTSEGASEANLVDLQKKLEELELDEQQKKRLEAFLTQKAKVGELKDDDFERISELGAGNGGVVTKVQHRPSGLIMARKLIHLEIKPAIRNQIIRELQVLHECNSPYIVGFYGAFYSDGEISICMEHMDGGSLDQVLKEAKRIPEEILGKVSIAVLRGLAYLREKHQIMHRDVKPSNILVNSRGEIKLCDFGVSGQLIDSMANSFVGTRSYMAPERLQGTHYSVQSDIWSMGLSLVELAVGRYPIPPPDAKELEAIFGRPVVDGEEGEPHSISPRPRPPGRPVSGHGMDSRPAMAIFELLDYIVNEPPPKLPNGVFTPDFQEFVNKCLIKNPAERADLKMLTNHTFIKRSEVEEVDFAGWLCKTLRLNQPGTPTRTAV
UniProt Q8WTQ7, sequence (whole entry, looked up): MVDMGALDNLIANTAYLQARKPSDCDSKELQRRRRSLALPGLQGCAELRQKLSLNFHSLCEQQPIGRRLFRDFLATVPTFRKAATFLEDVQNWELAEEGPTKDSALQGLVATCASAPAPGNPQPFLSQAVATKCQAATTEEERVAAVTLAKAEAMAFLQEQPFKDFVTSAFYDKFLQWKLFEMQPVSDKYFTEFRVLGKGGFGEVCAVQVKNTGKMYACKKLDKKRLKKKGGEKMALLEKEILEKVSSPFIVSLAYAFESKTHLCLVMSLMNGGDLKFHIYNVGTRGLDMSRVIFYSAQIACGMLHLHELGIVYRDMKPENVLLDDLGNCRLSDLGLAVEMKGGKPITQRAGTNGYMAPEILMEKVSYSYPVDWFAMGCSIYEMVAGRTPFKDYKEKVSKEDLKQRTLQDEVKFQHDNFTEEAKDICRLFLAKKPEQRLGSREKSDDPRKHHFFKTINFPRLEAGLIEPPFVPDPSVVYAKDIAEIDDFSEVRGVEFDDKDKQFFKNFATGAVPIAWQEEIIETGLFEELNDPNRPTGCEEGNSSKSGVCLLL

Study 1
Cell line: mouse MPNST tumor cells
Technique: high-content immunofluorescence imaging
Item: nuclear SOX9
Tested at: 10 µM
Time: 12 h
Notes: mean of 2 replicates
Baseline: DMSO control
Reading: higher = more nuclear SOX9
SMILES	nuclear SOX9 intensity
Oc1ccc(-c2c(-c3ccccc3)nn3c(C(F)(F)F)cc(C(F)(F)F)nc23)cc1	103 % of DMSO
CCOC(=O)C1=C[C@]2(CC)CCCN3CCc4c(n1c1ccccc41)[C@@H]32	97.4 % of DMSO
CCOc1ccc(-n2c(C(C)N(Cc3cccnc3)C(=O)Cc3ccc(OC(F)(F)F)cc3)nc3ncccc3c2=O)cc1 (stereo not drawn)	99 % of DMSO
COc1ccc([C@@H]2CC(=O)c3c(O)cc(O[C@@H]4O[C@H](CO[C@@H]5O[C@@H](C)[C@H](O)[C@@H](O)[C@H]5O)[C@@H](O)[C@H](O)[C@H]4O)cc3O2)cc1O	101 % of DMSO
CN1CCCN=C1/C=C/c1cccc(O)c1	91.7 % of DMSO
CCc1ccc(CCOc2ccc(CC3SC(=O)NC3=O)cc2)nc1 (stereo not drawn)	93.2 % of DMSO and 103 % of DMSO
COc1ccc(-c2nnc(Nc3nc4c(OC)cccc4s3)o2)cc1	91 % of DMSO

Study 2
SMILES: CCN(CC)CCCCN1c2ccccc2Oc2ccc(Cl)cc21
Effect on: enzyme activity
Action: inhibitor
Tested at: 0.5 µM
Baseline: control
target	remaining activity
FGFR1 (Homo sapiens, UniProt P11362)	105%
TAOK2 (Homo sapiens, UniProt Q9UL54)	95.3%
TEK (Homo sapiens, UniProt Q02763)	103%
JAK3 (Homo sapiens, UniProt P52333)	106%
GSK3B (Homo sapiens, UniProt P49841)	113%
NEK6 (Homo sapiens, UniProt Q9HC98)	107%
MAPK3 (Homo sapiens, UniProt P27361)	111%
MAP2K2 (Homo sapiens, UniProt P36507)	88.4%
MERTK (Homo sapiens, UniProt Q12866)	95.5%
FGFR3 (Homo sapiens, UniProt P22607)	91.8%
WEE1 (Homo sapiens, UniProt P30291)	92.7%
GRK7 (Homo sapiens, UniProt Q8WTQ7)	96.2%
EPHA3 (Homo sapiens, UniProt P29320)	101%
ABL2 (Homo sapiens, UniProt P42684)	101%

Study 3
Technique: exponential regression of PRP log k'
pH: 7.0
SMILES	logD (1,9-decadiene/water)
CCCCOc1ccc(-c2ccc(C(=O)NCCCCCC(=O)N[C@H](C(=O)N3C[C@H](O)C[C@H]3C(=O)NCc3ccc(-c4scnc4C)cc3)C(C)(C)C)cc2)cc1	1.55
Cc1ncsc1-c1ccc(CNC(=O)[C@@H]2C[C@@H](O)CN2C(=O)[C@@H](NC(=O)CCCCCOC(=O)CC23C[C@H]4C[C@@H](C2)C[C@@H](C3)C4)C(C)(C)C)cc1	1.99
COCC(=O)NCCCCCC(=O)N[C@H](C(=O)N1C[C@H](O)C[C@H]1C(=O)NCc1ccc(-c2scnc2C)cc1)C(C)(C)C	-4.4
Cc1ncsc1-c1ccc(CNC(=O)[C@@H]2C[C@@H](O)CN2C(=O)[C@@H](NC(=O)CCCCCOC(=O)CC(c2ccccc2)c2ccccc2)C(C)(C)C)cc1	1.35

Study 4
Species: human
Sample: microsomes or S9
Tested at: 2 µM
Time: 0.5 h
SMILES	remaining compound [%]
O=C(NC12CC3CC(CC(C3)C1)C2)C1CCN(c2cc(-n3cccc3)ncn2)CC1	0.707
CCOCCCN1C(=O)CN(S(C)(=O)=O)CC1(C)C(=O)NCc1ccc(C)cc1 (stereo not drawn)	89.7
COCCn1cc(C(=O)NCc2nc3ccccc3[nH]2)c2ccccc2c1=O	52.5
Cc1cnc(C)n1CCNS(=O)(=O)c1cccs1	71.1
Cn1cnc(S(=O)(=O)N2CCC(Oc3nccnc3C#N)C2)c1 (stereo not drawn)	> 99

For quick reference, copied from above (study 2):
target	remaining activity
FGFR3 (Homo sapiens, UniProt P22607)	91.8%
EPHA3 (Homo sapiens, UniProt P29320)	101%
